Results pooled from the literature.
Protocols differ between the studies behind these lines. Values joined by “and” are separate records of one study, mostly repeats; a detail may differ. ± marks the error that the study gave.
Chain of UniProt P23443 (whole entry, looked up): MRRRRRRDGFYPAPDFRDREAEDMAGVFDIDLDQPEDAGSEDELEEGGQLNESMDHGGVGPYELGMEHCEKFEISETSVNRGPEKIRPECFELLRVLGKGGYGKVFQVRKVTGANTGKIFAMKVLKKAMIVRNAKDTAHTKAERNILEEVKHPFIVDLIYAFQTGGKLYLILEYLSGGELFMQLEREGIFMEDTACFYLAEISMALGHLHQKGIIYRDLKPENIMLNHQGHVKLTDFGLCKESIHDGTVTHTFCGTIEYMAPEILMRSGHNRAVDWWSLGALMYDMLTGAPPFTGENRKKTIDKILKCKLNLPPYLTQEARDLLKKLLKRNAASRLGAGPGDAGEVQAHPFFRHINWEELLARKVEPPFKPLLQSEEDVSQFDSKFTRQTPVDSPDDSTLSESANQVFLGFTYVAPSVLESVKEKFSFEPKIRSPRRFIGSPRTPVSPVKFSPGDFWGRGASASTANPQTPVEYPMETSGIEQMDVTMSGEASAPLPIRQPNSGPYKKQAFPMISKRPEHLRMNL
Chain of UniProt P11309 (whole entry, looked up): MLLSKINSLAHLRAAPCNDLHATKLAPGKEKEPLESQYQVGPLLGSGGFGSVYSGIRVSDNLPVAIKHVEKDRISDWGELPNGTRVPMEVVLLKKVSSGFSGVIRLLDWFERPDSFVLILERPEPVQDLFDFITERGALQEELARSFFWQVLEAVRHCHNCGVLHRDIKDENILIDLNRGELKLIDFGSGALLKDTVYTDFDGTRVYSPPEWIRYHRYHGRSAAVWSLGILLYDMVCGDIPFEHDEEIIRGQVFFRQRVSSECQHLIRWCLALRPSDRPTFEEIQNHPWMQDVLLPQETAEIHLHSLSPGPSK

For `CN(C)[C@H]1C[C@@]23CC[C@@]4(O2)C(=CC[C@]2(C)[C@@H](c5ccc6ccncc6c5)CC[C@H]24)C=C3[C@@H](O)[C@@H]1O`, the inhibition was -27.5% (RPS6KB1 (Homo sapiens, UniProt P23443); ATP probe labelling, inhibitor, KiNativ profiling; 1 µM).
`COc1ccc([C@@H]2CC(=O)c3c(O)cc(O[C@@H]4O[C@H](CO)[C@@H](O)[C@H](O)[C@H]4O[C@@H]4O[C@@H](C)[C@H](O)[C@@H](O)[C@H]4O)cc3O2)cc1O` gave a faecal excretion of 22.2 ± 14 ng (male Sprague-Dawley rats, obese, faeces; oral, 100 mg/kg, 48 to 36 h).
With `CC[C@H](C)[C@H](NC(=O)[C@H](CCCNC(=N)N)NC(=O)[C@H](CCCCN)NC(=O)[C@H](Cc1ccc(O)cc1)NC(=O)[C@H](CC(=O)O)NC(=O)[C@H](C)NC(=O)CNC(=O)CCOCCOCCOCCNC(=O)CN1CCN(CC(=O)O)CCN(CC(=O)O)CCN(CC(=O)O)CC1)C(=O)N[C@H](C(=O)N[C@H](C(=O)N[C@@H](CCCCN)C(=O)N[C@H](C(=O)N[C@@H](CC(N)=O)C(N)=O)C(C)C)C(C)C)[C@@H](C)O` [copper-64 labelled] the tissue uptake was 0.105 ± 0.002 %ID/g (ex vivo gamma counting; C57BL/6J male mice, B16-F10 tumour, brain; intravenous, 1.85 MBq, 40 min).
With `CC(C)[C@@H]1NC(=O)CNC(=O)[C@H](CC(N)=O)NC(=O)[C@H](CCCNC(=N)N)NC(=O)[C@H](Cc2ccc(O)cc2)NC(=O)[C@H](C(C)C)NC(=O)[C@@H](NC(=O)[C@@H](NC(=O)[C@H](CC(N)=O)NC(=O)[C@H](Cc2c[nH]c3ccccc23)NC(=O)[C@H](C)NC(=O)[C@H](Cc2ccccc2)NC(=O)CNC(=O)[C@H](CCCCN)NC(=O)[C@H](Cc2ccccc2)NC(=O)[C@H](Cc2ccccc2)NC(=O)[C@H](CCCCN)NC(=O)OCC2c3ccccc3-c3ccccc32)C(C)C)CSSC[C@@H](C(=O)N[C@@H](Cc2c[nH]cn2)C(=O)N[C@@H](CCCNC(=N)N)C(=O)N[C@@H](CCCNC(=N)N)C(=O)N[C@@H](C)C(=O)N[C@@H](CC(N)=O)C(N)=O)NC(=O)[C@H](C(C)C)NC(=O)[C@H](CCCNC(=N)N)NC1=O` the albumin was 34 ± 0.78 g/L (ICR mouse, blood; intramammary, 10 mg/kg, day 5, 3 d dosing).
`CC(C)(C)C(=O)OCOP(=O)(OCOC(=O)C(C)(C)C)C1CCCN(O)C1=O` (stereo not drawn) gave a TGI of 1.58 µM (SK-MEL-5).
For `CS(C)(=O)=Nc1ccc(-c2ccc(-c3nc4cc(O[C@@H]5CO[C@H]6[C@@H]5OC[C@H]6O)[nH]c4cc3F)cc2)cc1`, the inhibition was 2% (PIM1 (Homo sapiens, UniProt P11309); enzyme activity, inhibitor; 10 µM).
`CC1COC2=C1C(=O)C(=O)c1c2ccc2c1C(OC(=O)CNC(=O)C(N)CCC(=O)O)CCC2(C)C` (mixture of isomers) gave an equilibrium solubility of 8010 µg/mL (saline with 20% PEG 400; 24 h, 25 °C).
Under “maximum pancreas uptake”, `CC[C@H](C)[C@H](NC(=O)[C@H](CO)NC(=O)[C@H](Cc1ccc(O)cc1)NC(=O)[C@H](Cc1ccc(O)cc1)NC(=O)[C@H](CC(N)=O)NC(=O)CNC(=O)[C@H](CO)NC(=O)[C@H](Cc1ccc(O)cc1)NC(=O)[C@H](CO)NC(=O)[C@H](CO)NC(=O)[C@H](CC(N)=O)NC(=O)COCCOCCNC(=O)CN1CCN(CC(=O)O)CCN(CC(=O)O)CCN(CC(=O)O)CC1)C(=O)N[C@@H](CC(C)C)C(N)=O` [copper-64 labelled] is recorded as 16.3 %IA/cc (dynamic PET; tamoxifen-induced PDAC mouse model, pancreas; 22.5 min, CLDN4-expressing tumours).
`CCCCCCCCCCCCCCCC(=O)N[C@@H](CCC(=O)NCCOCCOCCC(=O)NCCOCCOCCC(=O)NCCCC[C@H](NC(=O)[C@H](CC(=O)O)NC(=O)[C@H](CC(C)C)NC(=O)[C@H](Cc1ccc(O)cc1)NC(=O)[C@H](CCCCN)NC(=O)[C@H](CO)NC(=O)[C@H](Cc1ccc(O)cc1)NC(=O)[C@H](CC(=O)O)NC(=O)[C@H](CO)NC(=O)[C@@H](NC(=O)[C@H](Cc1ccccc1)NC(=O)[C@@H](NC(=O)CNC(=O)[C@H](CCC(N)=O)NC(=O)[C@@H](CO)NC(=O)[C@@H](N)Cc1c[nH]cn1)[C@@H](C)O)[C@@H](C)O)C(=O)N[C@@H](CCCNC(=N)N)C(=O)N[C@@H](CCCNC(=N)N)C(=O)N[C@@H](C)C(=O)N[C@@H](CCC(N)=O)C(=O)N[C@@H](CC(=O)O)C(=O)N[C@@H](Cc1ccccc1)C(=O)N[C@H](C(=O)N[C@@H](CCC(N)=O)C(=O)N[C@@H](Cc1c[nH]c2ccccc12)C(=O)N[C@@H](CC(C)C)C(=O)N[C@@H](CC(C)C)C(=O)N[C@@H](CC(N)=O)C(=O)N[C@H](C(=O)NCC(=O)NCC(=O)N1CCC[C@H]1C(=O)N[C@@H](CO)C(=O)N[C@@H](CO)C(=O)NCC(=O)N[C@@H](C)C(=O)N1CCC[C@H]1C(=O)N1CCC[C@H]1C(=O)N1CCC[C@H]1C(=O)N[C@@H](CO)C(N)=O)[C@@H](C)O)C(C)C)C(=O)O` gave a creatinine of 49.4 ± 4 µmol/L (rhesus monkey, male; subcutaneous, 20 µg/kg once daily, 28 days).
`CC(C)C[C@H](NC(=O)[C@H](CC(C)C)NC(=O)[C@H](CCCCN)NC(=O)[C@H](Cc1ccccc1)NC(=O)[C@@H](NC(=O)[C@H](CCCNC(=N)N)NC(=O)[C@@H](N)CCCCN)C(C)C)C(=O)N[C@@H](CCCCN)C(=O)N[C@@H](CCCNC(=N)N)C(=O)N[C@@H](Cc1ccc(O)cc1)C(=O)N[C@@H](Cc1c[nH]c2ccccc12)C(=O)N[C@@H](CCCNC(=N)N)C(=O)N[C@@H](CCC(N)=O)C(=O)N[C@@H](CC(C)C)C(=O)N[C@@H](CCCCN)C(=O)N[C@@H](CCCCN)C(=O)N1CCC[C@H]1C(=O)N[C@H](C(=O)N[C@@H](CCCNC(=N)N)C(=O)NCCOCCOCC(=O)O)C(C)C` gave a haemolysis of < 5% (mouse erythrocytes; up to 128 µM).
`[2H]C([2H])([18F])[C@]([2H])(N)C(=O)O` gave a tumour-to-muscle ratio of 2.1 ± 0.5 (PET; athymic nude mice, U-87 MG; dose not given, 20 min post-injection; relative to: tumour over muscle).
For `O=C1NC2(CC2)COc2ncc(F)cc2[C@H]2COCCN2c2ccn3ncc1c3n2`, the haematocrit was 44.9 ± 2.6% (Sprague-Dawley rat, male, blood; oral, 2.5 mg/kg/day, 4 weeks, end of treatment, subacute toxicity).
`COc1ccccc1-c1n[nH]c2nc(NC3CCN(C(=O)Cc4ccc(F)cc4F)CC3)ncc12` gave a relative abundance of 0.99 (bead binding, competition bead pull-down, refers to: LINJ.30.3480; Leishmania donovani axenic amastigote extract; 10 µM; relative to: vehicle).
With `C=Cc1c(C)c2cc3nc(c(CC(=O)[O-])c4[n-]c(cc5nc(cc1[n-]2)C(C)=C5CC)c(C)c4C(=O)[O-])C(CCC(=O)[O-])C3C.[Cu+2].[Na+].[Na+].[Na+]` (stereo not drawn) the haemoglobin was 14.2 ± 0.79 g/dL (Wistar rat, female; oral, 500 mg/kg daily, 28 days).
For `O=C1NC(=O)c2c1c1cc(F)c[n+]3c1c1c2c2cc(O)ccc2[n]1[Ru-4]312([N]=C=S)[S+]3CC[S+]1CC[S+]2CC3` (stereo not drawn), the remaining activity was 121% (Serine/threonine-protein kinase mTOR, with FKBP12 (MTOR, Homo sapiens, UniProt P42345); enzyme activity; 100 nM, human enzyme, with: 10 µM ATP; relative to: untreated).
Under “remaining intact peptide”, `CCCCCCCCCCCC(=O)C(C)C(=O)N1CCC[C@H]1C(=O)NC(C)(C)C(=O)NC(C)(C)C(=O)NC(C)(C)C(=O)N[C@](C)(CC)C(=O)NCCC(=O)N[C@@H](C)C(=O)N[C@](C)(CC)C(=O)N[C@@H](C)C(=O)N[C@@H](CC(C)C)C(=O)N[C@](C)(CC)C(=O)NCCC(=O)N[C@@H](C)C(=O)N[C@](C)(CC)C(=O)NCCC(=O)N[C@@H](C)C(=O)NC(C)(C)C(=O)NC(C)(C)C(=O)NC(C)(C)C(=O)N[C@@H](C)C(=O)N[C@@H](CC(=O)O)C(=O)O` (stereo partly drawn) is recorded as 80.9% and 98.4% and 100% (LC-MS; buffer with trypsin; 40 µM, 10 min, pH 7.5, 37 °C; relative to: 0 h).
The blood concentration of `C=Cc1c(C)c2cc3nc(c(CC(=O)O)c4[nH]c(cc5nc(cc1[nH]2)C(C)=C5CC)c(C)c4C(=O)O)[C@@H](CCC(=O)NCCCC[C@H](NC(C)=O)C(=O)N[C@@H](Cc1ccccc1)C(=O)N[C@@H](Cc1ccccc1)C(=O)N[C@H](C(=O)N[C@@H](CC(C)C)C(=O)N[C@@H](CCCCN)C(=O)N[C@@H](CO)C(=O)NCC(=O)N[C@@H](CCC(N)=O)C(=O)N[C@@H](Cc1ccc(O)cc1)C(=O)N[C@@H](C)C(=O)N[C@@H](CO)C(=O)N[C@@H](Cc1ccc(O)cc1)C(=O)N[C@@H](Cc1c[nH]cn1)C(=O)N[C@@H](CS)C(=O)N[C@@H](Cc1c[nH]c2ccccc12)C(=O)N[C@@H](CS)C(=O)N[C@@H](Cc1c[nH]c2ccccc12)C(=O)N[C@@H](CCCNC(=N)N)C(=O)N[C@@H](CC(=O)O)C(=O)N1CCC[C@H]1C(=O)NCC(=O)N[C@@H](CCCNC(=N)N)C(=O)N[C@@H](CO)C(=O)NCC(=O)NCC(=O)N[C@@H](CO)C(=O)N[C@@H](CCCCN)C(N)=O)C(C)C)[C@@H]3C` is reported as 152 µg/mL and 163 µg/mL (mouse, blood; 0.5 h).
`CC(=O)N[C@H](C(=O)N[C@@H](CCCC(=O)OC(C)(C)C)C(=O)N[C@@H](CCC1CCCCC1)C(=O)N[C@@H](CC(=O)O)C(=O)COC(=O)c1c(C)cccc1C)C(C)(C)C` has a blood concentration of 244 µM (C57BL/6N mouse, female, whole blood; intraperitoneal, dose not given, 8 h).

A few entries again:
`CC(C)C[C@H](NC(=O)[C@H](CC(C)C)NC(=O)[C@H](CCCCN)NC(=O)[C@H](Cc1ccccc1)NC(=O)[C@@H](NC(=O)[C@H](CCCNC(=N)N)NC(=O)[C@@H](N)CCCCN)C(C)C)C(=O)N[C@@H](CCCCN)C(=O)N[C@@H](CCCNC(=N)N)C(=O)N[C@@H](Cc1ccc(O)cc1)C(=O)N[C@@H](Cc1c[nH]c2ccccc12)C(=O)N[C@@H](CCCNC(=N)N)C(=O)N[C@@H](CCC(N)=O)C(=O)N[C@@H](CC(C)C)C(=O)N[C@@H](CCCCN)C(=O)N[C@@H](CCCCN)C(=O)N1CCC[C@H]1C(=O)N[C@H](C(=O)N[C@@H](CCCNC(=N)N)C(=O)NCCOCCOCC(=O)O)C(C)C` gave a haemolysis of < 5% (mouse erythrocytes; up to 128 µM).
`[2H]C([2H])([18F])[C@]([2H])(N)C(=O)O` gave a tumour-to-muscle ratio of 2.1 ± 0.5 (PET; athymic nude mice, U-87 MG; dose not given, 20 min post-injection; relative to: tumour over muscle).
